Experimental data of several laboratories.
Protocols differ between the studies behind these lines. Numbers after ± are the reported error.
HRH3: Histamine H3 receptor (HRH3, Homo sapiens, UniProt Q9Y5N1)
Chain of UniProt Q9Y5N1 (whole entry, looked up): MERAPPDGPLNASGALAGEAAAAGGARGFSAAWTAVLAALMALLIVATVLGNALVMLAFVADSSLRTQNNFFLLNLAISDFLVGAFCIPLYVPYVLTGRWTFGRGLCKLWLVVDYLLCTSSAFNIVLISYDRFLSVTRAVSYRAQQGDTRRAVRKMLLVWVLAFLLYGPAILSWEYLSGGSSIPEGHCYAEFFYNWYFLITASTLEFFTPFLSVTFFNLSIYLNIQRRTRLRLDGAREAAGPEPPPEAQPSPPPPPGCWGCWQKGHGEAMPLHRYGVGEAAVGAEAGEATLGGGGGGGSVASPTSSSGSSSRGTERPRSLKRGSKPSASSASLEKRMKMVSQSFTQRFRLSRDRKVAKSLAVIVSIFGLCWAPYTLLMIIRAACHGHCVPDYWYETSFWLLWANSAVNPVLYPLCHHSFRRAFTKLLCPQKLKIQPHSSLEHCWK
Slc6a3: Sodium-dependent dopamine transporter (Slc6a3, Rattus norvegicus, UniProt P23977)
Chain of UniProt P23977 (whole entry, looked up): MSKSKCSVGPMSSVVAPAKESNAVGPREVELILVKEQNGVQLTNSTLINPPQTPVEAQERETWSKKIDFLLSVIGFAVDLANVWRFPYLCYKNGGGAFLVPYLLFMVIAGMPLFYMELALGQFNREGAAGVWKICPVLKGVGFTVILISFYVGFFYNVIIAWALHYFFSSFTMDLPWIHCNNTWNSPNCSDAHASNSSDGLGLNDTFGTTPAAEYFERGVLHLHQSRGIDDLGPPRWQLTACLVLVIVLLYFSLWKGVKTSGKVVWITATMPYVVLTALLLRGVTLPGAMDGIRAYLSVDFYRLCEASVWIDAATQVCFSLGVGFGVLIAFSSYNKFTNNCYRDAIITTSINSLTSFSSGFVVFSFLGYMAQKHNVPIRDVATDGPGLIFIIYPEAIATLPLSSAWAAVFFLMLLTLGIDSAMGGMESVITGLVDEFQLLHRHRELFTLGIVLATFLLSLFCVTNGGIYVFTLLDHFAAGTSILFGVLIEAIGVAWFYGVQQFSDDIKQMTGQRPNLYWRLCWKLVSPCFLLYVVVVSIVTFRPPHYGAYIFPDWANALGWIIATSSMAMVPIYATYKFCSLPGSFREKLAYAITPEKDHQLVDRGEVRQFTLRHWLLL
ADRA2C: Alpha-2C adrenergic receptor (ADRA2C, Homo sapiens, UniProt P18825)
Chain of UniProt P18825 (whole entry, looked up): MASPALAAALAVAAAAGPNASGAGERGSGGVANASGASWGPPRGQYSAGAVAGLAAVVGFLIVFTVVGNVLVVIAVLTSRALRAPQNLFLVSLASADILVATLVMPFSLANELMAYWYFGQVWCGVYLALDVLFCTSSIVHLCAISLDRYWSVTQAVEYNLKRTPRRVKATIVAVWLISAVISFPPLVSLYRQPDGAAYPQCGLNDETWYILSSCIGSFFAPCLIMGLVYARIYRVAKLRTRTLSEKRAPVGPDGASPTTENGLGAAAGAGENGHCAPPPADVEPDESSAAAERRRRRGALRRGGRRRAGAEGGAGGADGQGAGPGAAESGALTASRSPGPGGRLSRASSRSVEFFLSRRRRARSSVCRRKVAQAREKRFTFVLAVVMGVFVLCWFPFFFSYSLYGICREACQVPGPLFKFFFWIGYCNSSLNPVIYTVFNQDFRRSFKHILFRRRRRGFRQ
Chain of UniProt O50406 (whole entry, looked up): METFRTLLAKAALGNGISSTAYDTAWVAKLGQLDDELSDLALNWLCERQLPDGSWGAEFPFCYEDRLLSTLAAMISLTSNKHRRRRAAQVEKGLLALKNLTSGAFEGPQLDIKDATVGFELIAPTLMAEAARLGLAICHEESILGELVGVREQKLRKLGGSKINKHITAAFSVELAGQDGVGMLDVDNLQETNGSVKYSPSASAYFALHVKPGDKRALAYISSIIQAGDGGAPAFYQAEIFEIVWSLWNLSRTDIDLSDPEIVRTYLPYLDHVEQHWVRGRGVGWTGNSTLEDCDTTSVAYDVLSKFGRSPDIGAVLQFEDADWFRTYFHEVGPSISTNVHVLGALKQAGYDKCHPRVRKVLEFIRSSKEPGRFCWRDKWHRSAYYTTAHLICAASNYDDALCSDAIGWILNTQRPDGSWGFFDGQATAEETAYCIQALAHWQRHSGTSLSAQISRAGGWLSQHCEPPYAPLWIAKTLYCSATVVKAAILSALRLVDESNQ
Chain of UniProt Q9NRN7 (whole entry, looked up): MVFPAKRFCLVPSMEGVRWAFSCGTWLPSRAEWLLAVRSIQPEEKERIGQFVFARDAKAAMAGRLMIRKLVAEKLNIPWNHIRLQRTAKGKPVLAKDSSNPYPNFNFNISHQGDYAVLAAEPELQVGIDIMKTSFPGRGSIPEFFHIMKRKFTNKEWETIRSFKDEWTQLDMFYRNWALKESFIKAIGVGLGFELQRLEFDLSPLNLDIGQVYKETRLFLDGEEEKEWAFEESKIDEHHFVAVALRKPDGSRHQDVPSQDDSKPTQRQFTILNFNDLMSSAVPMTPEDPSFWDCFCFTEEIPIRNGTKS
Chain of UniProt P21554 (whole entry, looked up): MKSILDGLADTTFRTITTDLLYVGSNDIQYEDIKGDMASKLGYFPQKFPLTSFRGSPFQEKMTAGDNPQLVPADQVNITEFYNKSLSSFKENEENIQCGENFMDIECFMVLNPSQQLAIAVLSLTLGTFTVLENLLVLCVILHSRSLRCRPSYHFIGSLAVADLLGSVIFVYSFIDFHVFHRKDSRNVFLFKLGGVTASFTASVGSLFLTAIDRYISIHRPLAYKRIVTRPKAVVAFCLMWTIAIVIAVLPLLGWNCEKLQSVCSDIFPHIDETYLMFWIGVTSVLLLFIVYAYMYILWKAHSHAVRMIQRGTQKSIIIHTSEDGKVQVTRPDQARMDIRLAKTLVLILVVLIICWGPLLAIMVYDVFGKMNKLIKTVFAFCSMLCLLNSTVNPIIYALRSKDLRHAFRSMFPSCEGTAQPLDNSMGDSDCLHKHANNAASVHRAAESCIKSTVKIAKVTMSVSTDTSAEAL
Chain of UniProt Q60857 (whole entry, looked up): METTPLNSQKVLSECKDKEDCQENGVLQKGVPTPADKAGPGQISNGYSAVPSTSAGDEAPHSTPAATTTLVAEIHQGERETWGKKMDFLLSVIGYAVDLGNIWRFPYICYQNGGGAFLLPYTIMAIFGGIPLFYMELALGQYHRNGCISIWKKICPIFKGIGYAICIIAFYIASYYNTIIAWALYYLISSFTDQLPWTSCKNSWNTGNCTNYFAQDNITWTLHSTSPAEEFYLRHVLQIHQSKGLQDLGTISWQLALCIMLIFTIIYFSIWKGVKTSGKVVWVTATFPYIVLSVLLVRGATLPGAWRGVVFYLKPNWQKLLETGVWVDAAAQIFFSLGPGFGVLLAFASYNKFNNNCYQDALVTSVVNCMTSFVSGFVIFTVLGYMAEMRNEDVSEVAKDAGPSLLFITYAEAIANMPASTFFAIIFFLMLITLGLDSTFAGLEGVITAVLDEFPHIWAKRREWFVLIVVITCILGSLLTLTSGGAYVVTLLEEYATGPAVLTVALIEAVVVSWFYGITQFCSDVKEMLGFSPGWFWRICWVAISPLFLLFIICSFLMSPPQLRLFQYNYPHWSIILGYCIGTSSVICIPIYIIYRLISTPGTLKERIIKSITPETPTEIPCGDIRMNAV
Chain of UniProt P14060 (whole entry, unmodified, looked up): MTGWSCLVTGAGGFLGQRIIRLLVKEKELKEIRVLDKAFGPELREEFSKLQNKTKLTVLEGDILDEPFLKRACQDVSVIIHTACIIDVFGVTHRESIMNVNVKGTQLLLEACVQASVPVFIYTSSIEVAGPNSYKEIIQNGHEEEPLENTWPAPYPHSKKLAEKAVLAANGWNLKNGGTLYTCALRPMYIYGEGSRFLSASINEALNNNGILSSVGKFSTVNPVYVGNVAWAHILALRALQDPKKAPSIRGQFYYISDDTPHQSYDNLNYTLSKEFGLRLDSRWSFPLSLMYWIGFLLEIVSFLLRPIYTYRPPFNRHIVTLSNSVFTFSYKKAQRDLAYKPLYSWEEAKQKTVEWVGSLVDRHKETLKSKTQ
Chain of UniProt P9WFT3 (whole entry, looked up): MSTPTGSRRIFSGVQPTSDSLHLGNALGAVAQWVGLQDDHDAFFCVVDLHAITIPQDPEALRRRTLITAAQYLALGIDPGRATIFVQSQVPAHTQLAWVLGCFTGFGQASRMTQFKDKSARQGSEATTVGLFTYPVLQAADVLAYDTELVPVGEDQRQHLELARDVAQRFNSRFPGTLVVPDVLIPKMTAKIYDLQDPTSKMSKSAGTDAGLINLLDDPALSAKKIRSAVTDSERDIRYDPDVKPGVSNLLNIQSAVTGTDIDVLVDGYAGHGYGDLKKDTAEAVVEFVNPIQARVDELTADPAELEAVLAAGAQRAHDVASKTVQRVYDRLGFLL
Chain of UniProt P46003 (1-109, unmodified, looked up): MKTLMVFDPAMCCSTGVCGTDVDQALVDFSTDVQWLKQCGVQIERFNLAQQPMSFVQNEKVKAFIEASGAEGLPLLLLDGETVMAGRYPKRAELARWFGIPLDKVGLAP
Chain of UniProt P37231 (whole entry, looked up): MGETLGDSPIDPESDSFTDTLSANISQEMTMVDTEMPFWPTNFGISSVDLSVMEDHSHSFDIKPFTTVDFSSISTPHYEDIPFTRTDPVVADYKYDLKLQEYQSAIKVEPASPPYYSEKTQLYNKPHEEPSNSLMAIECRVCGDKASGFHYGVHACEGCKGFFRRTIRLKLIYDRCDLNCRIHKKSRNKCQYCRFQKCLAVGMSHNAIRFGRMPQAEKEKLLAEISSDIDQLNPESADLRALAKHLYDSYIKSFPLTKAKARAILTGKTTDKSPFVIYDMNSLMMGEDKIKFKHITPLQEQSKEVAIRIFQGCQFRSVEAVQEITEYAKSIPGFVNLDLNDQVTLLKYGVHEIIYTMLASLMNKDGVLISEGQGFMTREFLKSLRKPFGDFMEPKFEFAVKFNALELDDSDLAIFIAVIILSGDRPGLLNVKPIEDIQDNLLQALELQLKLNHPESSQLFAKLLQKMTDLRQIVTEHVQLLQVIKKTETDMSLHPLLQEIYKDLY

With `O=[As][O-].[Na+]` the koff was 0.0004 ± 0.0002 s⁻¹ (Arsenical resistance operon trans-acting repressor ArsD, residues 1-109 (arsD, Escherichia coli, UniProt P46003, V17W/W35Y/W97Y); fluorescence quenching; no added thiols).
For `C[C@H](N)Cc1ccccc1`, Kb read “inactive” (HRH3; antagonist; membranes expressing H3 receptor; with: (R)-α-methylhistamine 1 µM).
For `CN[C@@H](C)[C@H](O)c1ccccc1`, activity read “inactive” (L-aminoadipate-semialdehyde dehydrogenase-phosphopantetheinyl transferase (AASDHPPT, Homo sapiens, UniProt Q9NRN7); enzyme activity; concentration not given, pH 7.6).
With `CNC(C)Cc1ccc2ccoc2c1` (centres unmarked) the selectivity ratio was 0.7 (Slc6a3; [3H]MPP+ release, releaser; rat brain synaptosomes; reference: DAT over NET, higher = more DAT-selective).
With `CN(CC(N)=O)C(=O)C(C)(C)NC(=O)c1nn(Cc2ccc(F)cc2)c2ccccc12` the Emax was 103 ± 2% (Cannabinoid receptor 1 (CNR1, Homo sapiens, UniProt P21554); calcium mobilization, agonist; CHO-K1 expressing Gαq16; reference: CP55,940 maximum).
`C[C@]12CCC(=O)CC1=CC[C@@H]1[C@@H]2CC[C@]2(C)C(=O)CC[C@@H]12` has a Km of 63.2 µM (3 beta-hydroxysteroid dehydrogenase/Delta 5-->4-isomerase type 1 (HSD3B1, Homo sapiens, UniProt P14060, R196P); substrate).
`C[C@H]1N=C(c2ccccc2F)c2cc(Br)ccc2NC1=O` gave an inhibition of 1% (ADRA2C; ligand displacement, radioligand; 10 µM).
The apparent Vmax of `N[C@H]1[C@@H](O[C@@H]2[C@H](O)[C@H](O)[C@@H](O)[C@H](O)[C@H]2O)O[C@H](CO)[C@@H](O)[C@@H]1O` is reported as 83 ± 10 nmol/min/mg (L-cysteine:1D-myo-inositol 2-amino-2-deoxy-alpha-D-glucopyranoside ligase (Mycobacterium tuberculosis, UniProt P9WJM9); enzyme activity; substrate varied, others saturating).
With `CNC(C)Cc1ccc2c(c1)OCO2` (racemic) the selectivity ratio was 0.75 (Slc6a3; [3H]MPP+ release, releaser; rat brain synaptosomes; reference: DAT over NET, higher = more DAT-selective).
`CC1N=C(c2ccccc2F)c2cc(N(C)C)ccc2NC1=O` (centres unmarked) gave an inhibition of 28% (ADRA2C; ligand displacement, radioligand; 10 µM).
The Hill coefficient of `COC[C@@H](NC(C)=O)C(=O)NCc1ccccc1` is reported as 0.72 (Sodium channel protein type 5 subunit alpha (SCN5A, Homo sapiens, UniProt Q14524); sodium current, inhibitor, IonWorks Quattro).
For `C[n+]1ccc(-c2ccccc2)cc1`, the Vmax was 0.23 ± 0.02 nmol/mg protein/min (Equilibrative nucleoside transporter 4 (SLC29A4, Homo sapiens, UniProt Q7RTT9, I89M); substrate, radiolabelled uptake; MDCK expressing YFP-tagged I89M SLC29A4; 1 min, 37 °C, vector background subtracted).
`NC(=O)C[S+]([O-])C(c1ccccc1)c1ccccc1` (centres unmarked) — result for Kb: “inactive” (HRH3; antagonist; membranes expressing H3 receptor; with: (R)-α-methylhistamine 1 µM).
The selectivity ratio of `CNC(C)Cc1ccc2occc2c1` (centres unmarked) is reported as 0.58 (Slc6a3; [3H]MPP+ release, releaser; rat brain synaptosomes; reference: DAT over NET, higher = more DAT-selective).
For `C/C(=C\CC/C(C)=C/COP(=O)(O)OP(=O)(O)O)CC/C=C(\C)CCCN(C)C`, the IC50 was 2 nM (Type B diterpene cyclase (Mycobacterium tuberculosis, UniProt O50406); enzyme activity, inhibitor, item: HPP from GGPP).
With `CC[C@H]1C[C@H]2C[C@H]3c4[nH]c5ccc(O)cc5c4CCN(C2)[C@@H]13` the potency ratio was greater than 50 fold (Sodium-dependent serotonin transporter (Slc6a4, Mus musculus, UniProt Q60857); transporter function, inhibitor, two-photon imaging; acute mouse brain slices; reference: axonal over somato-dendritic regions).
The fold change of `Nc1ncnc2c1ncn2[C@@H]1O[C@H](COP(=O)(O)OP(=O)(O)OP(O)(O)=S)[C@@H](O)[C@H]1O` is reported as 7 fold (Tryptophan--tRNA ligase (Mycobacterium tuberculosis, UniProt P9WFT3); ATP probe labelling, competitor, chemoproteomics; Mycobacterium tuberculosis, lysate; 500 µM; reference: untreated).
`N[C@@H](Cc1c[nH]c2ccc(O)cc12)C(=O)O` has a Km of 2660 ± 197 µM (TMO-IaaH coupled enzymes, Burkholderia pyrrocinia; substrate, LC-MS, item: 5-HIAA).
The selectivity ratio of `CNC(C)C(=O)c1ccc(C)cc1` (centres unmarked) is reported as 2.4 (Slc6a3; substrate release; rat brain synaptosomes; reference: SERT EC50 over target EC50).
`O=C1NC(=S)NC(=O)C1=Cc1ccc(/N=N/c2ccccc2)cc1`: EC50 “inactive” (Peroxisome proliferator-activated receptor gamma, ligand-binding domain (PPARG, Homo sapiens, UniProt P37231); reporter gene, agonist; HEK293T; up to 10 µM, trans isomer, dark).
